Results pooled from the literature.
Lines come from different studies, so protocols differ. ± gives the spread as reported.

With `COc1ccnc(C(=O)N[C@H]2COC(=O)[C@H](Cc3ccccc3)[C@@H](O)[C@H](C)OC2=O)c1O` the DT50 was 7.33 days (aerobic dark soil incubation; clay soil; 20 °C, persistence endpoint).
`O=C(O)CCC(=O)O.[2H]C([2H])([2H])Oc1cc(C)c2[nH]ccc2c1CN1CC[C@@H](C2CC2)C[C@H]1c1ccc(C(=O)O)cc1` — result for “subjects with reduced potassium TEAE”: 0% (multiple ascending dose; healthy Chinese subjects; 125 mg twice daily).
The fraction unbound of `CCc1cc2c(cc1CC)CC(NC[C@H](O)c1ccc(O)c3[nH]c(=O)ccc13)C2` is reported as 0.078 (equilibrium dialysis; rat, plasma).
With `C[C@@H](Oc1ccc(S(C)(=O)=O)cc1C(=O)N1C[C@@H]2C[C@]2(c2cc(C(F)(F)F)on2)C1)C(F)(F)F` the Vz/F was 329 L (young humans, plasma; oral, 25 mg once daily, single dose, geometric mean).
With `CO[C@@H]1[C@H](OC(=O)N2CC(CCN3CCOCC3)C2)CC[C@]2(CO2)[C@H]1[C@@]1(C)O[C@@H]1CC=C(C)C` the heart rate was -0.8 ± 5.3 beats/min (humans; subcutaneous, 0.2 mg twice weekly for 4 weeks, day 28; reference: baseline).
For `NC1(C(=O)N[C@@H](CCO)c2ccc(Cl)cc2)CCN(c2nc[nH]c3nccc2-3)CC1`, “incidence of white blood cell decreased” read 0% (metastatic CRPC patients; 480 mg b.i.d., grade 3 to 4, treatment-related, added: enzalutamide 160 mg daily).
`N[C@@H](CC(=O)O)C(=O)OC(C(=O)O)c1ccccc1[N+](=O)[O-].O=C(O)C(F)(F)F` (mixture of isomers) — result for “hydrolysis half-life, B isomer”: 25.7 ± 0.6 h (1H NMR, dark; 50 mM sodium phosphate; concentration not given, pH 7.0, room temperature, 12.5% DMSO-d6).
`COc1cccc(OC)c1-c1cc(C(=O)NC2(C(=O)O)C3CC4CC(C3)CC2C4)nn1-c1ccc(C(=O)N(C)CCCN(C)CCCN(C)C(=O)CN2CCN(CC(=O)[O-])CCN(CC(=O)[O-])CCN(CC(=O)[O-])CC2)cc1C(C)C.[177Lu+3]` (stereo not shown): “tumour-to-small intestine ratio” 34 (mouse HT-29 xenograft; 168 h, biodistribution; reference: tumour over small intestine).
`CCOCc1nc(O)c(-c2nnc(Cc3ccc(Cl)cn3)o2)c(O)c1-c1c(OC)cccc1OC` has a plasma concentration of 859 nM (rat, anaesthetised, cannulated, plasma; intravenous infusion, 10 µg/kg/min, 30 min after infusion stop, washout).
`COc1cccc(-c2n[nH]c(SCc3ccccn3)n2)c1OC` gave a plasma concentration of 142 ng/mL (Sprague-Dawley rats, both sexes; oral dietary, 10 mg/kg/day, day 7, 24 h).
For `NCCONC(=O)[C@@H]1CC[C@@H]2CN1C(=O)N2OS(=O)(=O)O`, “cumulative urinary excretion (0-24 h)” read 76.7% (human, male, urine; intravenous infusion, 2 g single dose; reference: dose).
`CCOc1c([C@H](C)n2nc(C)c3c(N)ncnc32)cc(Cl)c(F)c1[C@@H]1CNC(=O)C1` has an ECG observations of 0% (item: QRS >100 to ≤110 ms; previously treated B-cell malignancy; oral, 10 mg once daily, baseline below thresholds).
`N#Cc1ccc2c(c1)[C@H]1CCCN(C(=O)c3ccc4[nH]cnc4c3)[C@H]1C2` gave a DHEA-S level of 6.4 µmol/L (human males; 20 mg, end of trial).
`C/C(=N\NC(=O)Cn1c(-c2ccc(S(C)(=O)=O)cc2)nc2cc(Cl)ccc21)c1ccc(Cl)cc1` gave a ulcer number of 4.1% (rat, stomach; concentration not given, 4 h; reference: indomethacin).
Under “hypoglycaemia-related adverse event”, `OC[C@H]1O[C@@H](c2ccc(F)c(Cc3cc4ccccc4s3)c2)[C@H](O)[C@@H](O)[C@@H]1O` is recorded as 4% (Japanese patients, type 1 diabetes; oral, 25 mg/day, onset day 6; reference: patients).
The rectal temperature of `CO[C@H]1C[C@@H]2CC[C@@H](C)[C@@](O)(O2)C(=O)C(=O)N2CCCC[C@H]2C(=O)O[C@H]([C@H](C)C[C@@H]2CC[C@@H](O)[C@H](OC)C2)CC(=O)[C@H](C)/C=C(\C)[C@@H](O)[C@@H](OC)C(=O)[C@H](C)C[C@H](C)/C=C/C=C/C=C/1C` is reported as 37.8 ± 0.2 °C (healthy adult horses; intravenous, 0.06 mg/kg, 12 h).
`C=CCN1CC(=O)N2[C@@H](Cc3ccc(O)cc3F)C(=O)N(Cc3cccc(N4CC(N5CCN(CC)CC5)C4)n3)C[C@@H]2N1C(=O)NCc1ccccc1`: “any treatment-related adverse event” 0% (advanced solid tumour patients; oral, 15 mg twice daily, grade ≥3, dose-escalation).
`CC#CC(=O)N1CC[C@@H](n2c(=O)n(-c3ccc(Oc4ccccc4)cc3)c3c(N)ncnc32)C1` has an AUC(0-24h) of 5700 ± 578 ng·h/mL (human, fasting, plasma; oral, 320 mg once daily, cycle 1 day 1).
For `OC[C@H]1O[C@@H](c2ccc(Cl)c(Cc3ccc(O[C@H]4CCOC4)cc3)c2)[C@H](O)[C@@H](O)[C@@H]1O`, “change in Triglycerides” read -5.62 mg/dL (Japanese type 1 diabetes patients, blood; 2.5 mg, day 28; reference: baseline).

A few entries again:
`COc1cccc(-c2n[nH]c(SCc3ccccn3)n2)c1OC` gave a plasma concentration of 142 ng/mL (Sprague-Dawley rats, both sexes; oral dietary, 10 mg/kg/day, day 7, 24 h).
